Published values pooled from the literature.
Parts stem from different laboratories: compare values within a part only.

Series 1 — technique: protein binding microarray; form: double-stranded DNA, one strand shown; medium: in vitro; concentration: not given; baseline: not given; reading: higher = stronger binding; measurement: E-score
Target: Histone acetyltransferase KAT6A, winged helix 1, GST fusion (KAT6A, Homo sapiens, UniProt Q92794, residues 1-85)
Notes: 8-mer, flanks averaged, mean of 2 arrays, mostly near background
Target sequence (chain): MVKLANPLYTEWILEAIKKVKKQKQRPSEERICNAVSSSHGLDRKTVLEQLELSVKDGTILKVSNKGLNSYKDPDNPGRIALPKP
AGGAGGAC: -0.152
CACTAATA: -0.125
CCCGACGG: 0.475
AGGAGCAT: -0.174
CACGACCG: 0.196
GTCAGAAA: -0.276
CCTTACTC: -0.00585
ATAACAAC: -0.0778
AAGTAGTC: 0.00702
CGTACGGC: 0.438
GGAGCTCA: -0.101
GATTTAGA: -0.182
ACGCGTAA: 0.304
CATAGTAC: 0.00458
ACTAGGTC: -0.0284
CCCACTTA: -0.152
CTGTACAC: -0.0262
ACACGACT: -0.0071
CCCTCCAA: -0.0804
GGGCTACA: -0.0588
TACTCTGA: -0.0454
CACGCAAG: -0.0351
TCTATGAA: -0.0748
AATCTGCG: 0.111
ACTCCGCG: 0.278

Series 2 — technique: RNA Bind-n-Seq; form: RNA; medium: in vitro; concentration: 200 nM; notes: whole 134-nt RNA, ends assumed; added: 150 mM LiCl; baseline: input library; reading: higher = stronger binding; measurement: log2 enrichment; each molecule: 7-deaza-guanosine replaces G
Target: Fragile X messenger ribonucleoprotein 1, C-terminal low-complexity region (Fmr1, Mus musculus, UniProt P35922)
Constant ends, left off below: GGGAGUUCUACAGUCCGACGAUC … UGGAAUUCUCGGGUGUCAAGG
AAGUCCUGUGCUACACAUCGUAUGUACCGAAUCGGGGUUUGGGGAAAGGGGUGGGGAAAGUAUUAUGUUACGCCGUUCGGAUCUGCACUU: -1.23
GCAGUAAGUAAAAACAAAUGGAAAUGCUUCGGAUAGUGGCAGGGGUGGGGGUUGCUAAGGAAAGGGUGGGAUGGGAGUGGGUAAAGAGUU: 1.57
CCUGUGCUACACAUCGUAUGUACCGAAUCGGGAAAAAAAGGGUUUUUGGGAAAAAAAGGGAAAGUAUUAUGUUACGCCGUUCGGAUCUGC: -1.81
CCUGUGCUACACAUCGUAUGUACCGAAUCGGGGUUUUUUGGGUUUUUUGGGUUUUUUGGGGAAAGUAUUAUGUUACGCCGUUCGGAUCUG: -1.07
CACAGACAACACGCACUCACACAGACACAGAGGGAAGGGGUUGGGAUGGGGACAGGGUGCACAGCAGGGCGGGGUAGGACCCCAGCCCCU: 0.485
UCCUGUGCUACACAUCGUAUGUACCGAAUCGGGGAGGGGAAAAAAAGGGGAAAAAGGGGAAAGUAUUAUGUUACGCCGUUCGGAUCUGCA: 0.216
CUCAAGUCCUGUGCUACACAUCGUAUGUACCGAAUCGGGAGGGUGGGUUUGGGAAAGUAUUAUGUUACGCCGUUCGGAUCUGCACUUCCA: -0.777

Series 3 — technique: protein-binding microarray; form: double-stranded DNA, one strand shown; medium: in vitro; concentration: 940 nM top; notes: 60-bp whole probe; added: salmon DNA 0.4 mg/ml; baseline: random background probes; reading: higher = stronger binding; measurement: fitted relative affinity; constant ends, left off below: GCCTAGCAC … GTCTTGATTCGCTTGACGCTGCTG
Target: Interferon regulatory factor 5, full length, phosphomimetic (IRF5, Homo sapiens, UniProt Q13568-2, residues 1-514, S451D/S453D/S456D/S462D)
TATTTTTTTTATTTATAAATGTGCTAG: 0.636 z-score
TTAGGAATGGGGTATCGGTTAGTGCTA: 2.7 z-score
GACGGACTGGGGTATCCGGACGTGCTA: -0.135 z-score
TCACGTTACTTCCTCAAACTGTGCTAG: 1.08 z-score
CCCTTAAAAGACGTGCCAATGTGCTAG: 0.166 z-score
TTATGACTGCTTTTCCTTTAGTGCTAG: 0.678 z-score
TTAGGTTTCGACTTTCGGCTAGTGCTA: 8.86 z-score
GACGATCTCAATATCGAGACGTGCTAG: 0.343 z-score
TGTTTTTGCTTTCTTTTTGCGTGCTAG: 2.01 z-score
GACGATCTCAGCATCGAGACGTGCTAG: -0.309 z-score
TTAGGTATCGGGACTGGGCTAGTGCTA: 4.36 z-score
TTGTGTTGCTGTTTGAGGAAGTGCTAG: -0.0797 z-score
TTAGGCCTGGGGTATCGGTTAGTGCTA: 2.32 z-score
GACGATTTTGGGACTGGAGACGTGCTA: -0.213 z-score
TTAGGACTGGACTTTCGTTTAGTGCTA: 1.16 z-score
GACGAATTCAGTCTCGAGACGTGCTAG: 1.56 z-score
GTCCCTGAATGAAAACATCATGTGCTA: 0.44 z-score
GACGGTTTCGGTTCCGGGAGGTGCTAG: 13.2 z-score
AGCCGTCTCCACCTGGGCAAGTGCTAG: 0.00655 z-score
GACGGACCGGGTTTCGGGACGTGCTAG: 2.42 z-score
GATGGTATCGGACTGGGGACGTGCTAG: 4 z-score
CACGGACTGGACACTGGGGACGTGCTA: -0.829 z-score
GACGGTAGCGGGACTGGGGACGTGCTA: -0.33 z-score
TTAGGACTGTGGTATCGGTTAGTGCTA: 4.03 z-score

Series 4 — technique: protein-binding microarray; form: double-stranded DNA, one strand shown; medium: in vitro; concentration: not given; reading: higher = stronger binding; measurement: E-score
Target: Transcriptional repressor CTCF (CTCF, Homo sapiens, UniProt P49711, residues 1-727, full length assumed)
UniProt P49711, sequence (whole entry, looked up): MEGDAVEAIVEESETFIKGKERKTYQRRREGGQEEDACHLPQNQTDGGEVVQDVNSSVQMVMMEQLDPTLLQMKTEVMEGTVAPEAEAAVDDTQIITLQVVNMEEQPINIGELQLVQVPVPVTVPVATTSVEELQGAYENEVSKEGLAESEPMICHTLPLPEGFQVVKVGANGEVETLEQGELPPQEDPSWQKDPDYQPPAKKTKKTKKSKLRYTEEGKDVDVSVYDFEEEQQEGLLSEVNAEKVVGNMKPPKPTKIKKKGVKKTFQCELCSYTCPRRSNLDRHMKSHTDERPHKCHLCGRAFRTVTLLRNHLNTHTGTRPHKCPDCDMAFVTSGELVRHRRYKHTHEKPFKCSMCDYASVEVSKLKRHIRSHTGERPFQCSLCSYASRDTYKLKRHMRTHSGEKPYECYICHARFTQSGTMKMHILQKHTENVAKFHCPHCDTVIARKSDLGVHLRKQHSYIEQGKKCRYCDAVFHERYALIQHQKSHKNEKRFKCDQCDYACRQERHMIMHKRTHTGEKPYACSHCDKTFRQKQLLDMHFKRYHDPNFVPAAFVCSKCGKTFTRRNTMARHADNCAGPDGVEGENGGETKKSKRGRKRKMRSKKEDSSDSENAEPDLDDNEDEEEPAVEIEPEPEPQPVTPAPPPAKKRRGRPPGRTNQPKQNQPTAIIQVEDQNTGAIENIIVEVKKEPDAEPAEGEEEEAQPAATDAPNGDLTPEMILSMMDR
Notes: k-mer, scored over probes, only values ≥0.25
TGTACACA: 0.26
ACATATAT: 0.368
CATATTAA: 0.351
GCATGCGA: 0.265
ATGCATTA: 0.313
AGATAATG: 0.281
CGCAAACA: 0.279
TAATATTA: 0.402
GTGGTTAA: 0.288
ATGAATGC: 0.299
ACAACATA: 0.321
GTAAACAA: 0.271
ATAAAATG: 0.334
GTGGTGTA: 0.281
ACAAAAAA: 0.302
ACATTTAA: 0.26
GCCGCATA: 0.266
ACTACTAT: 0.258
ACACACAT: 0.288

Series 5 — technique: RNA Bind-n-Seq; form: RNA; medium: in vitro; concentration: not given; baseline: input RNA pool; reading: higher = stronger binding; measurement: bound/input enrichment
Target: RING finger protein unkempt homolog, zinc fingers 1-6, GST-SBP tag (UNK, Homo sapiens, UniProt Q9C0B0, residues 30-357)
UniProt Q9C0B0, sequence (30-357, looked up): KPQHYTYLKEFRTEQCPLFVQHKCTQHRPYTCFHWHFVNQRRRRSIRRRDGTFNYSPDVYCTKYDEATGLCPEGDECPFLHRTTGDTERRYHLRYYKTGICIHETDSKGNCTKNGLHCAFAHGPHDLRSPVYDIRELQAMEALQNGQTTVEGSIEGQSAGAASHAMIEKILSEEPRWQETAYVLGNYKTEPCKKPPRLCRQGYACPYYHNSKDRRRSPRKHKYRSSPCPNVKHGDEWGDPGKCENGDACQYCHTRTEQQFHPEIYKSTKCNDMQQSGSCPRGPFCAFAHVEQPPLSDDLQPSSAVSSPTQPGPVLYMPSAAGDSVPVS
Notes: RNA with constant flanks, human and mouse sites, ends assumed
Constant ends, left off below: GGGAGUUCUACAGUCCGACGAUC … CAACAGAGGAUUGAGCAUCA
GGUGUUUUUUUUCUGGAUAUCACAUUUUCUUCAGAUUAUCCAUUUAAGCCACCAAAGGUUACUUUCCGUACCAGAAUCUAUCACUGCAACAUCAACAGUCAGGGAGUCAUCUGCCUGGAU: 0.188 ratio
UAACUAUUCAUUUUUAGCUUUUGUCUCCAGUGCAUGAUCUCAUAUUUUUGCUUUUAUUUUUAGUAUAAGAACAUUUAUAAAAUCAUAUUUUUGUUACUGCAAUUGUUUUAUUUGUUGUGU: 6.07 ratio
ACAUUUAUGUCGCCAGGCUUUCCAGUCAAUAACAGCAGCAGUGAUAAUGCUCAGAACUUUAGUUUUAAAACAAACUCUGGAUUUGCUGCUGCCUCUUCUGGAAGCCCUGCUGGUUUUGGG: 0.155 ratio
UAGAGAACAAUGACCUCAUUUUAUUUUCUAUGUUAGUUAUUUAUUUCAAAAUUAACAUUUUAGUUGAUUUUUGUCUGAUAAGUCUAUGUUUUGCACUGCUAACUAUGAUGAGGGUUUAAA: 1.57 ratio
UUUGGUGGGUUUGUCACUGAGCCUCAGGAGGAGUCUGAAGAAGAAGUAGAGGAACCUGAAGAAAGACAGCAAACACCUGAGGUGGUACCUGAUGAUUCUGGAACUUUCUAUGAUCAGGCA: 0.17 ratio
CGAGUGUUAAGGGUUAGGGUGGUUGUGCAAGCAAAUUUUUAAGUUGUAUUUUUAUAAACUUUCAGUUAAGGAUUAUUAUUAACAACCAGGUCAACAUGAUAAGCCUACAUUUAUAUAGAG: 0.757 ratio
AAAAAACAACAGUUUUGUUGGCAUGUGAAGCUCCAGUUUCCUCAAAGUCAAGCUGAGUACAUAGAAAAAAGAGUACCAGAUGAUAAAACUAUUAAUGAAAUCCUAAAACCUUACAUUGAU: 0.188 ratio
AUUCGGCUCCGCCUGGAGAGCUGUGAAGACAGGUUGAUUCGGCAGAUCCGGACUCCCCUGGAAAGAGAUGAUUUACAUGAAAGCAUGCUCAGGAUCACGGAGCAGGAGAAACUGAAGAAA: 0.353 ratio
UUUACCACCAGAGACUUCUCCAUUCGGUCCCUAGCCGACCGCUUGGGAGACUUGAAUUACCUUAUCUACGUGUUUCCUGAUCGGCCAAAAGAUGAAGUAUACUCCAAAUACUACACACCA: 0.214 ratio
GUGGAUGACGAUGACUACUUCCUCUGCCUUCCUUCCAAUACGAAGUUUGUGGCGUUGGCCUGCAAUGAGAAGUGGAUUUAUAAUGAUUCCGAUGGAGGGACGGCUUGGGUUUCCCAAGAG: 0.274 ratio
UUCCCAAAUCGUUUUUCCAAUCGCCCAAUAACUGGACCUCACAUCGCAUACACAGAGGCUGUUAGCGACACUCAGAUCAUGCUGAAAUGGACGUAUGUUCCAUCAAGUAACAAUAAUACU: 0.38 ratio

Some of these lines once more (series 1):
ACGCGTAA: 0.304
CATAGTAC: 0.00458
ACTAGGTC: -0.0284
CCCACTTA: -0.152
CTGTACAC: -0.0262
ACACGACT: -0.0071
CCCTCCAA: -0.0804
GGGCTACA: -0.0588
TACTCTGA: -0.0454
CACGCAAG: -0.0351
TCTATGAA: -0.0748
AATCTGCG: 0.111
